{"data": "Measurements from different studies", "IL18BP": "IL18BP (Homo sapiens, UniProt O95998)", "FCGR1A": "FCGR1A (Homo sapiens, UniProt P12314)", "B1": "Pard6b 1-371 (Mus musculus, UniProt Q9JK83); chain MNRGHRHGASSGCLGTMEVKSKFGAEFRRFSLERSKPGKFEEFYGLLQHVHKIPNVDVLVGYADIHGDLLPINNDDNYHKAVSTANPLLRIFIQKKEEADYSAFGTDTLIRKKNMLSNVLRPDNHRKKPHIVISMPQDFRPVSSIIDVDILPETHRRVRLYKYGTEKPLGFYIRDGSSVRVTPHGLEKVPGIFISRLVPGGLAQSTGLLAVNDEVLEVNGIEVSGKSLDQVTDMMIANSRNLIITVRPANQRNNVVRNSRTSGSSSQSTDNSLLGFPQQVEASFEPEDQDSDEDDIIIEDSGEPQQIPKATPAQSLESLTQIELSFESGQNGFSPPQDTSLVPVPGSLDTELESRAPDQKLLEEDGTIITL", "B2": "IL18 37-193 C74S/C104S/I107C/C112S/N123C/C163S (Homo sapiens, UniProt Q14116); chain YFGKLESKLSVIRNLNDQVLFIDQGNRPLFEDMTDSDSRDNAPRTIFIISMYKDSQPRGMAVTISVKSEKCSTLSSENKIISFKEMCPPDNIKDTKSDIIFFQRSVPGHDNKMQFESSSYEGYFLASEKERDLFKLILKKEDELGDRSIMFTVQNED", "B3": "IL18 37-193 S46C/C74S/C104S/C112S/C163S/V189C (Homo sapiens, UniProt Q14116); chain YFGKLESKLCVIRNLNDQVLFIDQGNRPLFEDMTDSDSRDNAPRTIFIISMYKDSQPRGMAVTISVKSEKISTLSSENKIISFKEMNPPDNIKDTKSDIIFFQRSVPGHDNKMQFESSSYEGYFLASEKERDLFKLILKKEDELGDRSIMFTCQNED", "B4": "designed binder (Homo sapiens); chain MASAARLTMMWEEVTCPICLDPFVEPVSIECGHSFCQECISQVGKGGGSVCPVCRQRFLLKNLRPNRQLANMVNNLKEISQEAREGTQGERCAVHGERLHLFCEKDGKALCWVCAQSRKHRDHAMVPLEEAAQEYQEKLQVALGELRRKQELAEKLEVEIAIKRADWKKTVETQKSRIHAEFVQQKNFLVEEEQRQLQELEKDEREQLRILGEKEAKLAQQSQALQELISELDRRCHSSALELLQEVIIVLERSESWNLKDLDITSPELRSVCHVPGLKKMLRTCAGGGGSGGGGSGGGGSRLDAPSYIEVRYVTDAEAVISWDYPLAEIDGFELTYGIKDVPGDRTTIKLTEDDYYYYIDYLKPDTEYEVSLISRRGDMSSNPAKITFKTGL", "B5": "IL18 37-193 C74S/T99C/C104S/C112S/P124C/C163S (Homo sapiens, UniProt Q14116); chain YFGKLESKLSVIRNLNDQVLFIDQGNRPLFEDMTDSDSRDNAPRTIFIISMYKDSQPRGMAVCISVKSEKISTLSSENKIISFKEMNCPDNIKDTKSDIIFFQRSVPGHDNKMQFESSSYEGYFLASEKERDLFKLILKKEDELGDRSIMFTVQNED", "B6": "TNFSF4 51-183 (Homo sapiens, UniProt P23510); sequence looked up; chain QVSHRYPRIQSIKVQFTEYKKEKGFILTSQKEDEIMKVQNNSVIINCDGFYLISLKGYFSQEVNISLHYQKDEEPLFQLKKVRSVNSLMVASLTYKDKVYLNVTTDNTSLDDFHVNGGELILIHQNPGEFCVL", "B7": "IL18 37-193 C74S/C104S/C163S/L174C (Homo sapiens, UniProt Q14116); chain YFGKLESKLSVIRNLNDQVLFIDQGNRPLFEDMTDSDSRDNAPRTIFIISMYKDSQPRGMAVTISVKSEKISTLSCENKIISFKEMNPPDNIKDTKSDIIFFQRSVPGHDNKMQFESSSYEGYFLASEKERDLFKLICKKEDELGDRSIMFTVQNED", "B8": "CDC48A 1-190 (Arabidopsis thaliana, UniProt P54609); chain MSTPAESSDSKSKKDFSTAILERKKSPNRLVVDEAINDDNSVVSLHPATMEKLQLFRGDTILIKGKKRKDTVCIALADETCEEPKIRMNKVVRSNLRVRLGDVISVHQCPDVKYGKRVHILPVDDTVEGVTGNLFDAYLKPYFLEAYRPVRKGDLFLVRGGMRSVEFKVIETDPAEYCVVAPDTEIFCEG", "B9": "EFR3A 721-791 (Homo sapiens, UniProt Q14156); chain SNTEEITFEALKKAIDTSGMEEQEKEKRRLVIEKFQKAPFEEIAAQCESKANLLHDRLAQILELTIRPPPS", "B10": "UPF2 761-1227 (Homo sapiens, UniProt Q9HAU5); sequence looked up; chain EKTVKKKRPPLQEYVRKLLYKDLSKVTTEKVLRQMRKLPWQDQEVKDYVICCMINIWNVKYNSIHCVANLLAGLVLYQEDVGIHVVDGVLEDIRLGMEVNQPKFNQRRISSAKFLGELYNYRMVESAVIFRTLYSFTSFGVNPDGSPSSLDPPEHLFRIRLVCTILDTCGQYFDRGSSKRKLDCFLVYFQRYVWWKKSLEVWTKDHPFPIDIDYMISDTLELLRPKIKLCNSLEESIRQVQDLEREFLIKLGLVNDKDSKDSMTEGENLEEDEEEEEGGAETEEQSGNESEVNEPEEEEGSDNDDDEGEEEEEENTDYLTDSNKENETDEENTEVMIKGGGLKHVPCVEDEDFIQALDKMMLENLQQRSGESVKVHQLDVAIPLHLKSQLRKGPPLGGGEGEAESADTMPFVMLTRKGNKQQFKILNVPMSSQLAANHWNQQQAEQEERMRMKKLTLDINERQEQED", "B11": "designed binder (Homo sapiens); chain MASAARLTMMWEEVTCPICLDPFVEPVSIECGHSFCQECISQVGKGGGSVCPVCRQRFLLKNLRPNRQLANMVNNLKEISQEAREGTQGERCAVHGERLHLFCEKDGKALCWVCAQSRKHRDHAMVPLEEAAQEYQEKLQVALGELRRKQELAEKLEVEIAIKRADWKKTVETQKSRIHAEFVQQKNFLVEEEQRQLQELEKDEREQLRILGEKEAKLAQQSQALQELISELDRRCHSSALELLQEVIIVLERSESWNLKDLDITSPELRSVCHVPGLKKMLRTCAGGGGSGGGGSGGGGSRLDAPSQIEVKDVTDTTALITWHRYSTHISWFELTYGIKDVPGDRTTISLWPYRRSYSIGNLKPDTEYEVSLISSGYSYSSNPAKITFKTGL", "B12": "prohibitin, human; sequence looked up; chain AAKVFESIGKFGLALAVAGGVVNSALYNVDAGHRAVIFDRFRGVQDIVVGEGTHFLIPWVQKPIIFDCRSRPRNVPVITGSKDLQNVNITLRILFRPVASQLPRIFTSIGEDYDERVLPSITTEILKSVVARFDAGELITQRELVSRQVSDDLTERAATFGLILDDVSLTHLTFGKEFTEAVEAKQVAQQEAERARFVVEKAEQQKKAAIISAEGDSKAAELIANSLATAGDGLIELRKLEAAEDIAYQLSRSRNITYLPAGQSVLLQLPQ", "B13": "IL18 37-193 C74S/S101C/C104S/T109C/C112S/C163S (Homo sapiens, UniProt Q14116); chain YFGKLESKLSVIRNLNDQVLFIDQGNRPLFEDMTDSDSRDNAPRTIFIISMYKDSQPRGMAVTICVKSEKISCLSSENKIISFKEMNPPDNIKDTKSDIIFFQRSVPGHDNKMQFESSSYEGYFLASEKERDLFKLILKKEDELGDRSIMFTVQNED", "B14": "EFR3B 716-787 (Homo sapiens, UniProt Q9Y2G0); chain VPAEEITYETLKKAIVDSVAVEEQERERRRQVVEKFQKAPFEEIAAHCGARASLLQSKLNQIFEITIRPPPS", "note": "Each line is one published result; not all experiments were run side by side. ± marks the error that the study gave.", "UniProt P12314, sequence (whole entry, looked up)": "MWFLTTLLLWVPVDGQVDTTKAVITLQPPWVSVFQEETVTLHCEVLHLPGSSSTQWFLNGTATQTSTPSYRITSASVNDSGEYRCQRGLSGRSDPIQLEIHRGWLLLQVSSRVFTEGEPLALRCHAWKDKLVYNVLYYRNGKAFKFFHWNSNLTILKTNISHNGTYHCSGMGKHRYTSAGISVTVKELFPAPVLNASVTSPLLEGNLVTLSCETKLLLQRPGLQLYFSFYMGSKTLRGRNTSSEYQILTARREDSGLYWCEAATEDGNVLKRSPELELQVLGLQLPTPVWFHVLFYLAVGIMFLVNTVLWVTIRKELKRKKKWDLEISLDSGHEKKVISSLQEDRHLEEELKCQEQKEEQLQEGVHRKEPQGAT", "UniProt Q9UDY8, sequence (whole entry, looked up)": "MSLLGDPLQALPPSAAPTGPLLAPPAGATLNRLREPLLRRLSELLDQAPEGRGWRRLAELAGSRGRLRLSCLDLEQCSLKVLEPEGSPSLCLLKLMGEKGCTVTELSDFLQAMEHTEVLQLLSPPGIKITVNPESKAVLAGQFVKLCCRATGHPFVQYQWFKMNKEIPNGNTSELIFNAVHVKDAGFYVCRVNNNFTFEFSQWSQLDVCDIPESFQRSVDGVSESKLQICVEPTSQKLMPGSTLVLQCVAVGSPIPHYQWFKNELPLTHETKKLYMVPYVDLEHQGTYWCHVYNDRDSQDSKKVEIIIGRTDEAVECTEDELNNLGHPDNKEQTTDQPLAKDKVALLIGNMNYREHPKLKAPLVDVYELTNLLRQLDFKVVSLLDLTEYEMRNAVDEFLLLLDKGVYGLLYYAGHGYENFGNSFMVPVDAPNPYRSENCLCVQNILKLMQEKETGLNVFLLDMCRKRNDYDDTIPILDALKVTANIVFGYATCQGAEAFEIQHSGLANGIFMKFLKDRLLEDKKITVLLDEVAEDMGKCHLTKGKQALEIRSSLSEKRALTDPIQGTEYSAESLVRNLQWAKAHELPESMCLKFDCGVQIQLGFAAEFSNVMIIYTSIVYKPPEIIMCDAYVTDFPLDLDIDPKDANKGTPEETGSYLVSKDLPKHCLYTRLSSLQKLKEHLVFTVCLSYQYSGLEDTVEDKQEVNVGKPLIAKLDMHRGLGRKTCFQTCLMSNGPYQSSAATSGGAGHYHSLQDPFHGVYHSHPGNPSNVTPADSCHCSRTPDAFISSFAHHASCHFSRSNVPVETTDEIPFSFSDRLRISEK", "UniProt P12830, sequence (whole entry, looked up)": "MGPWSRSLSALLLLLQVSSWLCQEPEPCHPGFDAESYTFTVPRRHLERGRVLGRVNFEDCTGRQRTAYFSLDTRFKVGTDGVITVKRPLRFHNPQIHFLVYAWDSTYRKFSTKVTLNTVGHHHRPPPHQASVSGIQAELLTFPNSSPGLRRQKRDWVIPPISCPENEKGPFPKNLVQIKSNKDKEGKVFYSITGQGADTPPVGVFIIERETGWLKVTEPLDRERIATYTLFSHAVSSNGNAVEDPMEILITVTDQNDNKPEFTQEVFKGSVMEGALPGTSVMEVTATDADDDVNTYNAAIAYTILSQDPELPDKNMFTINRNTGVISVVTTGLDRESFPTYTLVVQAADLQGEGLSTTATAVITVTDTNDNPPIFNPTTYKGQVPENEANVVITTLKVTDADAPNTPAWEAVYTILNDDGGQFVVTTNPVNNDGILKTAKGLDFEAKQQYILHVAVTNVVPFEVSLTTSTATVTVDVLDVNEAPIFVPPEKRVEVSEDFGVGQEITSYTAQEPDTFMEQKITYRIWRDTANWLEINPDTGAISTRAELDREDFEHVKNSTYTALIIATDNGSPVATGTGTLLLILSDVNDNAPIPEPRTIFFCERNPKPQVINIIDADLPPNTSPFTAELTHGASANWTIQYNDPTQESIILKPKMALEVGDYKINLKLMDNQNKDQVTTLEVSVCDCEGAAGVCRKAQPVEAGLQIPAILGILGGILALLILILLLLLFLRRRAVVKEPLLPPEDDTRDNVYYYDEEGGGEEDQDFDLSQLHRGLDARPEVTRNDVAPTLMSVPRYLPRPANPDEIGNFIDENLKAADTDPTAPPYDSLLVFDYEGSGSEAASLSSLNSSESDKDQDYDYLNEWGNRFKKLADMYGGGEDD", "UniProt O75530, sequence (whole entry, looked up)": "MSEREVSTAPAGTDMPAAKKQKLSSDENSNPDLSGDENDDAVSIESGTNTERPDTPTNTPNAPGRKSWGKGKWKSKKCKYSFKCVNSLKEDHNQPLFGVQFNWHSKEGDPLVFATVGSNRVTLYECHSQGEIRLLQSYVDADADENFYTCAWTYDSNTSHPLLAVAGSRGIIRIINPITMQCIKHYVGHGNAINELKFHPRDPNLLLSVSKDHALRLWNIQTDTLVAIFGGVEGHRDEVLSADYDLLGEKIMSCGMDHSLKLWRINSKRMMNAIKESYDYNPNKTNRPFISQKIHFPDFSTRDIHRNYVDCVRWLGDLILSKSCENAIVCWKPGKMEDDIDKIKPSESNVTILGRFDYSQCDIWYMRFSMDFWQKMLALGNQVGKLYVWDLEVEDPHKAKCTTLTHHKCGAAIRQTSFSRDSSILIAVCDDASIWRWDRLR", "UniProt Q9BZI7, sequence (whole entry, looked up)": "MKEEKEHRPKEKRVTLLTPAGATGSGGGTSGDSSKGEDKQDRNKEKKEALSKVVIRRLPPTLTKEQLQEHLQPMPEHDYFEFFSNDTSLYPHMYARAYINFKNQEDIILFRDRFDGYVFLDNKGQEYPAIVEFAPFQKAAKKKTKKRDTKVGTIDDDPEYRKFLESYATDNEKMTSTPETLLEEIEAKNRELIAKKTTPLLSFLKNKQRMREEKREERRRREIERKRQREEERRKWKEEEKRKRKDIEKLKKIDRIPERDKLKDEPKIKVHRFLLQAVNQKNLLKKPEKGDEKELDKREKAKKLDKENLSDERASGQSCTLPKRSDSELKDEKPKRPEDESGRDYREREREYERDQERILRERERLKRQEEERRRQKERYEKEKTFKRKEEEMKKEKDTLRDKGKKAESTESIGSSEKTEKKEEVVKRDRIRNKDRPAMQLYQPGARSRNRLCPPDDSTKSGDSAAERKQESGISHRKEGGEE", "UniProt P09803, sequence (whole entry, looked up)": "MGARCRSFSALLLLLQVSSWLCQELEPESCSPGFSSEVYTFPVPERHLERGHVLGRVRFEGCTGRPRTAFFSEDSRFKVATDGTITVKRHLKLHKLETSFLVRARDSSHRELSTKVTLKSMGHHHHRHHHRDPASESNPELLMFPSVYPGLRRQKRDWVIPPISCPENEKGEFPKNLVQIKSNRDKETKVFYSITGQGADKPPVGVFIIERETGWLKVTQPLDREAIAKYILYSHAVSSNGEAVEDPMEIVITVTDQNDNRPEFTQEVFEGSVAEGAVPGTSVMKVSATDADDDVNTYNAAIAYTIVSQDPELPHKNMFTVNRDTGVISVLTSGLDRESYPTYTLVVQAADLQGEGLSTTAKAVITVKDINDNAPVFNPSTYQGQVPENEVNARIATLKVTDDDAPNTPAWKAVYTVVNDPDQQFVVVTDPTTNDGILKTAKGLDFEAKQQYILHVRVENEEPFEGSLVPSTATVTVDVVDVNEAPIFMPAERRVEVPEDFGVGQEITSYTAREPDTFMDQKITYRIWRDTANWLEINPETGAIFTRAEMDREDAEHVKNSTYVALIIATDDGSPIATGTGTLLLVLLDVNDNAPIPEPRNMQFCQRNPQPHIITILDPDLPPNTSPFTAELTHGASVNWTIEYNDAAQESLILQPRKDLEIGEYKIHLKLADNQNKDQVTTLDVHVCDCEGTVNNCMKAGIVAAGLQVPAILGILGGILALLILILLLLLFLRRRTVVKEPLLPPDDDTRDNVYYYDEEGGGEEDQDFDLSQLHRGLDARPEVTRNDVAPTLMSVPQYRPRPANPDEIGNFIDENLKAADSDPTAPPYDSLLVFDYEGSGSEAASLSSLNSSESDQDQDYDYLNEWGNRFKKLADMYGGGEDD", "UniProt Q6P1M3, sequence (whole entry, looked up)": "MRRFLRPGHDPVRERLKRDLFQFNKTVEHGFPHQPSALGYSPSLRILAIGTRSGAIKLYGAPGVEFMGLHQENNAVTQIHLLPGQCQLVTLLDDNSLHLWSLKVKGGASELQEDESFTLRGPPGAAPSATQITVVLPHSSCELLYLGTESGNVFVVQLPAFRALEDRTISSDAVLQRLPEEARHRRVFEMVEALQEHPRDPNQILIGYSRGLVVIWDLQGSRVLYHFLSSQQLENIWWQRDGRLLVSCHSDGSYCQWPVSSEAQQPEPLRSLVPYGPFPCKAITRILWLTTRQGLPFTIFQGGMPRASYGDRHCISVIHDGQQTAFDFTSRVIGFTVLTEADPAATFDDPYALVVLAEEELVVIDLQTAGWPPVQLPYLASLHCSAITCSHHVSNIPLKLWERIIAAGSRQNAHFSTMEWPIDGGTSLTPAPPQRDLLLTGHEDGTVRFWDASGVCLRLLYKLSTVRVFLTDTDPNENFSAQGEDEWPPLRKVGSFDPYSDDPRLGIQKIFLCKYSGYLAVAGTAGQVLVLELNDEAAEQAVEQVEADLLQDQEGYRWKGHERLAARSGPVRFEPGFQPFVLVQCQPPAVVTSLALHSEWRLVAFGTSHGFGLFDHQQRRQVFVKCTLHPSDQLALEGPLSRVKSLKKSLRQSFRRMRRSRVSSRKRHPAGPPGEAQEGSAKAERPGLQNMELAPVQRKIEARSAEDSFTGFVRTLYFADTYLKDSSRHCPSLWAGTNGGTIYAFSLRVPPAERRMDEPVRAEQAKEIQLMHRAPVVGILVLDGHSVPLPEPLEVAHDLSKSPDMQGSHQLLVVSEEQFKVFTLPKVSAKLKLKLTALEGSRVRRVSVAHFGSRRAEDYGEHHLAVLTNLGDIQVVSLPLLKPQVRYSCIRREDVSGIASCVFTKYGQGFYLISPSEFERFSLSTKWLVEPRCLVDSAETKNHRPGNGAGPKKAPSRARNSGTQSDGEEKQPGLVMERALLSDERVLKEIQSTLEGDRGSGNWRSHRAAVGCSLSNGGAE"}
{"Molecule": "human RAB1B", "target or system": "CYB5R4 knockout human cells", "assay": "PP6 interaction, 3xFLAG-PP6C IP-MS", "setting": "concentration not given", "scale": "baseline: CYB5R4 KO over parental", "endpoint": "log2 fold change", "result": -0.1}
{"Molecule": "B1 (Pard6b 1-371)", "target or system": "LLGL2 13-978, dephosphorylated (Homo sapiens, UniProt Q6P1M3)", "assay": "BLI", "endpoint": "koff", "result": "0.0356 s⁻¹"}
{"Molecule": "B2", "target or system": "IL18BP", "assay": "SPR", "endpoint": "koff", "result": "2.1e-05 s⁻¹"}
{"Molecule": "Trastuzumab IgG1 (Homo sapiens)", "target or system": "FCGR1A", "assay": "SPR", "endpoint": "koff", "result": "0.00058 s⁻¹"}
{"Molecule": "B3", "target or system": "IL18BP", "assay": "SPR", "endpoint": "koff", "result": "4.3e-05 s⁻¹"}
{"Molecule": "colistin", "target or system": "Enterobacter cloacae", "assay": "broth microdilution", "system": "clinical isolate RKI-No_113/16", "endpoint": "MIC", "result": "≤ 0.5 µg/mL"}
{"Molecule": "B4 (designed binder)", "target or system": "EED (Homo sapiens, UniProt O75530)", "assay": "BLI", "system": "designed binder", "endpoint": "koff", "result": "0.00293 s⁻¹"}
{"Molecule": "MBL-A mature, hydroxylysine, hydroxyproline in collagen (Rattus norvegicus, UniProt P19999)", "target or system": "Masp2 S613A (Rattus norvegicus)", "assay": "SPR", "setting": "single-site model", "endpoint": "koff", "result": "0.00062 s⁻¹"}
{"Molecule": "YIKTPLGTFPNRHGC (engineered peptide)", "target or system": "VPS35/VPS26A/VPS29 retromer complex (Homo sapiens)", "assay": "SPR", "system": "peptide", "endpoint": "koff", "result": "0.002 s⁻¹"}
{"Molecule": "B5", "target or system": "IL18BP", "assay": "SPR", "endpoint": "koff", "result": "2.5e-05 s⁻¹"}
{"Molecule": "B6 (TNFSF4 51-183)", "target or system": "TNFRSF4 29-170 W86A (Homo sapiens, UniProt P43489)", "assay": "SPR", "endpoint": "koff", "result": "0.039 s⁻¹"}
{"Molecule": "B7", "target or system": "IL18BP", "assay": "SPR", "endpoint": "koff", "result": "2e-05 s⁻¹"}
{"Molecule": "B8 (CDC48A 1-190)", "target or system": "PUX7 (Arabidopsis thaliana, UniProt Q94JZ8)", "assay": "BLI", "setting": "25 °C", "endpoint": "koff", "result": "0.00021 s⁻¹"}
{"Molecule": "EGLN1 fragment", "target or system": "HIF1A NODD peptide 394-411, C-terminal amide (Homo sapiens)", "assay": "BLI", "endpoint": "koff", "result": "0.01 s⁻¹"}
{"Molecule": "B9 (EFR3A 721-791)", "target or system": "PI4KA/TTC7B/FAM126A TTC7B/FAM126A", "assay": "BLI", "endpoint": "koff", "result": "3.69e-05 s⁻¹"}
{"Molecule": "EPHA2 fragment, auto-phosphorylated (Homo sapiens)", "target or system": "EFNA5 (Homo sapiens, UniProt P52803)", "assay": "BLI", "setting": "apparent", "endpoint": "koff", "result": "0.00883 s⁻¹"}
{"Molecule": "YLEFDPLYVRLFYVNC (engineered peptide)", "target or system": "VPS35/VPS26A/VPS29 retromer complex (Homo sapiens)", "assay": "SPR", "system": "peptide", "endpoint": "koff", "result": "0.002 s⁻¹"}
{"Molecule": "B9 (EFR3A 721-791)", "target or system": "TTC7A/FAM126B FAM126B 1-308", "assay": "BLI", "endpoint": "koff", "result": "0.000439 s⁻¹"}
{"Molecule": "B10 (UPF2 761-1227)", "target or system": "UPF3B (Homo sapiens, UniProt Q9BZI7)", "assay": "BLI", "endpoint": "koff", "result": "0.00199 s⁻¹"}
{"Molecule": "B11 (designed binder)", "target or system": "MALT1 (Homo sapiens, UniProt Q9UDY8)", "assay": "BLI", "system": "designed binder", "endpoint": "koff", "result": "0.0515 s⁻¹"}
{"Molecule": "B12 (prohibitin, human)", "target or system": "CYB5R4 knockout human cells", "assay": "PP6 interaction, 3xFLAG-PP6C IP-MS", "setting": "concentration not given", "scale": "baseline: CYB5R4 KO over parental", "endpoint": "log2 fold change", "result": 0.36}
{"Molecule": "CDH1 (Homo sapiens, UniProt P12830)", "target or system": "Cdh1 157-709 (Mus musculus, UniProt P09803)", "assay": "adhesion frequency micropipette", "endpoint": "koff", "result": "0.9 ± 0.1 s⁻¹"}
{"Molecule": "B13", "target or system": "IL18BP", "assay": "SPR", "endpoint": "koff", "result": "2.4e-05 s⁻¹"}
{"Molecule": "Trastuzumab IgG1, CSCS double cysteine mutant (Homo sapiens)", "target or system": "FCGR1A", "assay": "SPR", "endpoint": "koff", "result": "0.00055 s⁻¹"}
{"Molecule": "B14 (EFR3B 716-787)", "target or system": "TTC7B/FAM126B FAM126B 1-308", "assay": "BLI", "endpoint": "koff", "result": "0.000205 s⁻¹"}
{"Molecule": "YLLFWRDELILLCGSER (macrocyclic peptide; Tyr1-Cys13 thioether, C-terminal amide)", "target or system": "MCL1 172-322 (Homo sapiens)", "assay": "SPR", "system": "peptide", "endpoint": "koff", "result": "0.0278 s⁻¹"}
{"note": "Repeated from above:"}
{"Molecule": "B1 (Pard6b 1-371)", "target or system": "LLGL2 13-978, dephosphorylated (Homo sapiens, UniProt Q6P1M3)", "assay": "BLI", "endpoint": "koff", "result": "0.0356 s⁻¹"}
{"Molecule": "B2", "target or system": "IL18BP", "assay": "SPR", "endpoint": "koff", "result": "2.1e-05 s⁻¹"}
